Published values of several laboratories.
“And” joins repeats or separate records; there may be more than shown.
TOP2A: DNA topoisomerase 2-alpha (TOP2A, Homo sapiens, UniProt P11388)
Chain of UniProt Q8NFU1 (whole entry, looked up): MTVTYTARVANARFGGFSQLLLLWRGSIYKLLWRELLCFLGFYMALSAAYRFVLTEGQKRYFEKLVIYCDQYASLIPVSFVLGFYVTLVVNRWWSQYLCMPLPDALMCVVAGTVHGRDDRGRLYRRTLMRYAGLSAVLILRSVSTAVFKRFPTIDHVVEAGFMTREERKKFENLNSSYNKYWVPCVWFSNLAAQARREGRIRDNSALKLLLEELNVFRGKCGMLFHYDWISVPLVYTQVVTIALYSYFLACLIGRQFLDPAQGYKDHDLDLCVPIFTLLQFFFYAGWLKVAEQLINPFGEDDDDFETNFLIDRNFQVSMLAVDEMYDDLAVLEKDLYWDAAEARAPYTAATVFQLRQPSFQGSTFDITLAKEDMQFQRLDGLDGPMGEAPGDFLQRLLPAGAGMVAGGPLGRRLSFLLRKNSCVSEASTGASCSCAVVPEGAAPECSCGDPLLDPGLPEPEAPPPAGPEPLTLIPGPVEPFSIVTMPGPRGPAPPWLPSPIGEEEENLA
Chain of UniProt P11388 (whole entry, looked up): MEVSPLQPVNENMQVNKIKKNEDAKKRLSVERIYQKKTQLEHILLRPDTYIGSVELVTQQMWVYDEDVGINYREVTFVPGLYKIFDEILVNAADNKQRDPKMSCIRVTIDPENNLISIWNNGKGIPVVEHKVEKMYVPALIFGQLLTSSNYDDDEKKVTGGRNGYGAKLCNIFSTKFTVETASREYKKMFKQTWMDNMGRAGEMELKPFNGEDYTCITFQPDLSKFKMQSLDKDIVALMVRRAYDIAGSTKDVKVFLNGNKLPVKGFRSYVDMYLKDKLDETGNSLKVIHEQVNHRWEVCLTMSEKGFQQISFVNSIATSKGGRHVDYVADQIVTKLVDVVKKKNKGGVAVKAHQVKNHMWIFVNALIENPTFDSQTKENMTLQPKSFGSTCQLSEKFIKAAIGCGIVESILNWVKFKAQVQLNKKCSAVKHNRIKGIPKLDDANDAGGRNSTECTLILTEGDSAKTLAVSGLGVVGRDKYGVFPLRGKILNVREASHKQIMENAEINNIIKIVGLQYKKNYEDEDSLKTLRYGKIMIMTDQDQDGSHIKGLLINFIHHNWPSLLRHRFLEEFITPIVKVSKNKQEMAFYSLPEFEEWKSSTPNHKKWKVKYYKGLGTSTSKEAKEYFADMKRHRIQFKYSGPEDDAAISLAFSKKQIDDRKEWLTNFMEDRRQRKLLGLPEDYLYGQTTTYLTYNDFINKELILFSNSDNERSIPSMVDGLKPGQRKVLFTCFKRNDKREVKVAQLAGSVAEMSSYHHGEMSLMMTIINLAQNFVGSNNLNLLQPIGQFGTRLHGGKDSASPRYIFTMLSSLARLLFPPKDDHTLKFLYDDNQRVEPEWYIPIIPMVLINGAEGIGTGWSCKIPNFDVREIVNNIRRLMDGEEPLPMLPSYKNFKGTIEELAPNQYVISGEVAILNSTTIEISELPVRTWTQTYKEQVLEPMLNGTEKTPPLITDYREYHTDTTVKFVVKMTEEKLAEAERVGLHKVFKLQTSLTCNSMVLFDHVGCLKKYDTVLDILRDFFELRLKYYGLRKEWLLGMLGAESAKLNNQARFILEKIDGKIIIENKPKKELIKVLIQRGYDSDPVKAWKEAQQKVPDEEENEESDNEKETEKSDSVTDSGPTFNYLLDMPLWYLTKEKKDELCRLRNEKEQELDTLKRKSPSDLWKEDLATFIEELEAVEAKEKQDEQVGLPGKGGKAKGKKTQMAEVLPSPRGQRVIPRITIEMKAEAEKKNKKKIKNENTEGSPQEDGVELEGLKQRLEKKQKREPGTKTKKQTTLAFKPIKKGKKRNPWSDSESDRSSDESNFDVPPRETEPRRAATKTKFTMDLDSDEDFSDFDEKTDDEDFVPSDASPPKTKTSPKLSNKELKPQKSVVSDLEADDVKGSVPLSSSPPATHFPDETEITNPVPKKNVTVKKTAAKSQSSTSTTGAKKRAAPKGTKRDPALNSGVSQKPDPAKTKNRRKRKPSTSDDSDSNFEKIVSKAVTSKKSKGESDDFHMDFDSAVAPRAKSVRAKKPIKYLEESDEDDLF
Chain of UniProt Q16774 (whole entry, unmodified, looked up): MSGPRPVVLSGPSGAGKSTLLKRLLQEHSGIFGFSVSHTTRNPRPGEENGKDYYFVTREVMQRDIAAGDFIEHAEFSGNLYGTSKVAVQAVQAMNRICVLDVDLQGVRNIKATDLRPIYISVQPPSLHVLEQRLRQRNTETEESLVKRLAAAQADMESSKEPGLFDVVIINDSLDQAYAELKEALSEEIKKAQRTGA
Chain of UniProt Q9UM73 (whole entry, looked up): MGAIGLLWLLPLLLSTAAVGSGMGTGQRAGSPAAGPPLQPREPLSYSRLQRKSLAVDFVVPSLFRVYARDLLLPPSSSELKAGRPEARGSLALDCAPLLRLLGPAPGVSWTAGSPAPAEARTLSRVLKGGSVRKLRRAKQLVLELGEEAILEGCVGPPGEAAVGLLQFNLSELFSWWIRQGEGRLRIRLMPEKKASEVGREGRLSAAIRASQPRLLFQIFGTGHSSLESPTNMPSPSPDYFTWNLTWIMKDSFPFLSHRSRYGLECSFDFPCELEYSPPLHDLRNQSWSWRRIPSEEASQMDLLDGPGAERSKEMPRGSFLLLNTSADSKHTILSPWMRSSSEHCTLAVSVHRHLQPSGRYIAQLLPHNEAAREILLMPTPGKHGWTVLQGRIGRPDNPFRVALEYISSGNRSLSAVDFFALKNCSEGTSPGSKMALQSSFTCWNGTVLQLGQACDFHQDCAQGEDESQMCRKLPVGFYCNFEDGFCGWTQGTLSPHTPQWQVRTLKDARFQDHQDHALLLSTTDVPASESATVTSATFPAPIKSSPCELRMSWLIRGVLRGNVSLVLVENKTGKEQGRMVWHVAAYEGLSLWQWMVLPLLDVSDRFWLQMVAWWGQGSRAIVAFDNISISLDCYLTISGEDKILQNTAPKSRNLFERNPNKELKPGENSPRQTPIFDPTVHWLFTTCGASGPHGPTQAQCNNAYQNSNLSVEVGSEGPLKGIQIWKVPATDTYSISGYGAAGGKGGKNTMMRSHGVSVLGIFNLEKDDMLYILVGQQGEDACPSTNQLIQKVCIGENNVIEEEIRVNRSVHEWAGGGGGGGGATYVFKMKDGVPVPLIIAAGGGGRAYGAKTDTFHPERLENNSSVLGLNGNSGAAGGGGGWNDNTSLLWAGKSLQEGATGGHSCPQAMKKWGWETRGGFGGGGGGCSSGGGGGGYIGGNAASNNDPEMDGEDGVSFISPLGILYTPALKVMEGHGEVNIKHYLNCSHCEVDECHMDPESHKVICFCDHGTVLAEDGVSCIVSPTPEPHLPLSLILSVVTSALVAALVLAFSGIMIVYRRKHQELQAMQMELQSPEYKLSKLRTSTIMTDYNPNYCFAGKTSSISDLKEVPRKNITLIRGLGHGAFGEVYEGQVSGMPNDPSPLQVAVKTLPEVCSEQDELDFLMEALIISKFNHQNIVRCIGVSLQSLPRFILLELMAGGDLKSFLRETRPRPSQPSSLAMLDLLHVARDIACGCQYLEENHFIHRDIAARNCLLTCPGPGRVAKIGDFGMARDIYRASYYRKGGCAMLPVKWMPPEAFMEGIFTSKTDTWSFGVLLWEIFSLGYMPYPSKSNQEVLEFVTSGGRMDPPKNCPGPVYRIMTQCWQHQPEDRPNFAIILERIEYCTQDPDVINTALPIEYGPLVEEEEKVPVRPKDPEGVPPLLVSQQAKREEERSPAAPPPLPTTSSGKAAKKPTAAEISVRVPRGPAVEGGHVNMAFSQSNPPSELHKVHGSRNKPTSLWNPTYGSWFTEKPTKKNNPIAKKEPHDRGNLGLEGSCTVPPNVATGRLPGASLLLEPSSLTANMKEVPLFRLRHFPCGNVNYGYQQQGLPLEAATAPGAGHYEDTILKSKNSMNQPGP
Chain of UniProt Q8IVV7 (whole entry, looked up): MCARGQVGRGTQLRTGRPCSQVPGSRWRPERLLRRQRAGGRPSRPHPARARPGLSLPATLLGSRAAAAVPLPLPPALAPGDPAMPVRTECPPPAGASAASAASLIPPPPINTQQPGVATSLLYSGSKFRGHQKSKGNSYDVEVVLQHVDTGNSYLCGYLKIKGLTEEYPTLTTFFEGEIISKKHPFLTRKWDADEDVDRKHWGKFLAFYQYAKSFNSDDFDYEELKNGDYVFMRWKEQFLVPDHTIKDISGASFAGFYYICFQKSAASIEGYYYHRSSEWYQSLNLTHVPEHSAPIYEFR
Chain of UniProt P51575 (whole entry, unmodified, looked up): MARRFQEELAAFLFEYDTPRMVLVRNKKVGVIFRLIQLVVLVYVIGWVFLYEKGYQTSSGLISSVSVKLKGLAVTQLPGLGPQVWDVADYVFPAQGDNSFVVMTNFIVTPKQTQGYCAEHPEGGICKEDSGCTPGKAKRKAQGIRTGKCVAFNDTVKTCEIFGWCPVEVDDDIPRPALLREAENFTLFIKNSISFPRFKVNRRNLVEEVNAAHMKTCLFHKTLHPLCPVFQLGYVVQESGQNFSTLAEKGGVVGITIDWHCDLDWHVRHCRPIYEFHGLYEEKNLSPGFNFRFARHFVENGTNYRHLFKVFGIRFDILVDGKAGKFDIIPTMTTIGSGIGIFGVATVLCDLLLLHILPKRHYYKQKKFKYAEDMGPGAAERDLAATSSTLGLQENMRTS
Chain of UniProt O75030 (1-296, unmodified, looked up): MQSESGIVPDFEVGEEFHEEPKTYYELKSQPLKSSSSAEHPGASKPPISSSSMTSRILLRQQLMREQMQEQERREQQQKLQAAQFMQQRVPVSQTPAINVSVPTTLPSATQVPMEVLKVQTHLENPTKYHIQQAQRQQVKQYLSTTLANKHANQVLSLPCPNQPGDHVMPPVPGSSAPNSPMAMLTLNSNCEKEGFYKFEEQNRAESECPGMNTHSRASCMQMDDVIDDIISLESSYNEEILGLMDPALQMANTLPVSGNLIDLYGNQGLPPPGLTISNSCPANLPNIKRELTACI

Structure (SMILES)	target	test	system	setting	how to read	measurement	result
Nc1ncnc2c1ncn2[C@@H]1O[C@H](COP(=O)(O)CP(=O)(O)OP(=O)(O)O)[C@@H](O)[C@H]1O	P2X purinoceptor 1 (P2RX1, Homo sapiens, UniProt P51575, K215A)	saturation binding	HEK293	103 nM	–	specific binding	5000 CCPM and 5010 CCPM
CCCCCCCCCCCCC/C=C/[C@@H](O)[C@@H](N)COP(=O)(O)O	Potassium channel subfamily K member 2 (KCNK2, Homo sapiens, UniProt O95069)	lipid binding, BRET	–	100 µM, together with: fluorescent PIP2 500 nM	–	PIP2 binding competition	not detected
O=C(O)c1ccc(Nc2ncc3c(n2)-c2ccc(Cl)cc2C(c2c(F)cccc2F)=NC3)cc1	ErbB4(h)	kinase activity	–	1 µM	–	remaining activity	74%
[Ca+2]	Cone cGMP-gated channel (Morone saxatilis, UniProt Q3I0N1+Q3I0N2)	channel current, modified Michaelis-Menten fit	striped bass (Morone saxatilis), cone outer segment	together with: cGMP	–	Ca2+ K1/2 limit	857 nM and ~860 nM
CCC(=O)N[C@H](CC(C)C)C(=O)N1C(=O)C=C(OC)[C@@H]1CC(C)C	Androgen receptor (AR, Homo sapiens, UniProt P10275, T878A)	–	LNCaP	5 µM	–	activity	inactive
Nc1ncnc2c1nc(Br)n2[C@@H]1O[C@@H]2COP(=O)(O)O[C@H]2[C@H]1O	anti-cGMP antibody	antibody binding, competitive cGMP EIA	–	concentration not given, acetylated samples	reference: EC50 cGMP over EC50 cpd, higher = stronger binding	relative binding affinity	0.0024
CCS(=O)(=O)c1cccc(-c2cc(C(=O)NC3CCN(C)CC3)c(C)c3[nH]c4ncc(C)cc4c23)c1	Serine/threonine-protein kinase N1 (PKN1, Homo sapiens, UniProt Q16512)	inhibitor	–	–	–	Hill slope	-0.863
CC(C)C[C@H](NC(=O)[C@H](Cc1ccccc1)NC(=O)c1cnccn1)B(O)O	Proteasome component C5/PSMB5 (Homo sapiens, UniProt P20618+P28074)	enzyme activity, inhibitor, progress curve	–	human constitutive β5c	–	kobs/[I]	141000 M⁻¹ s⁻¹
COCCC(=O)N1CCC(Oc2ccccc2)C1 (stereo not drawn)	DNA damage-binding protein 1 (DDB1, Homo sapiens, UniProt Q16531)	binding, affinity selection mass spectrometry	–	–	reference: other proteins in batch	log fold enrichment	0.203
C=CC(=O)N1CCC(COCC(=O)N2CCN(c3nc(-c4cnc(N)nc4C(F)F)nc(N4CCOC[C@@H]4C)n3)CC2)CC1	Mitogen-activated protein kinase kinase kinase kinase 3 (MAP4K3, Homo sapiens, UniProt Q8IVH8)	KINOMEscan	–	1 µM	reference: DMSO control	remaining binding	89%
CCN1CCC[C@H]1CNC(=O)c1c(O)c(Cl)cc(Cl)c1OC	Hydroxycarboxylic acid receptor 3 (HCAR3, Homo sapiens, UniProt P49019)	β-arrestin recruitment, TANGO luminescence, refers to: GPR109B	–	concentration not given	reference: basal luminescence	log2 fold change	-0.582
O=c1nc(SCc2cc(F)cc(C(F)(F)F)c2)nc(SCc2ccc3nc(Cl)ccc3c2)[nH]1	TOP2A	DNA relaxation	–	31.25 µM	–	mean relaxed DNA	94.5%
Cc1cccc(N2CC(C(=O)O)CC2=O)c1 (stereo not drawn)	Histone-lysine N-methyltransferase SETDB1, triple tudor domain (SETDB1, Homo sapiens, UniProt Q15047)	binding, affinity selection mass spectrometry	–	–	reference: other proteins in batch	log fold enrichment	0.0184
[Zn+2]	Otop1 (Mus musculus, UniProt Q80VM9)	acid-evoked current, inhibitor, whole-cell patch-clamp	HEK293T	1 mM, pH 5.5, unit not given	reference: current before compound	remaining current	0.179
O=c1nc(SCc2cc(F)cc(C(F)(F)F)c2)nc(SCc2ccc3ncsc3c2)[nH]1	TOP2A	decatenation	–	15.6 µM, replicate 2	–	decatenated DNA	87.4%
CN1CCN(c2cc(-c3ccncc3)c(-c3ccc4ccccc4c3)nn2)CC1	C-C chemokine receptor type 4 (CCR4, Homo sapiens, UniProt P51679)	agonist, FLIPR	–	12.5 µM	–	activation	2.1%
Cc1nc(CSc2nc(SCc3cc(F)cc(C(F)(F)F)c3)nc(=O)[nH]2)cs1	TOP2A	decatenation	–	15.6 µM, replicate 2	–	decatenated DNA	88.8%
O=C(O)c1cc2ccc(C#CC3(O)CCCCC3)cc2n1-c1cccc(Cl)c1	Microphthalmia-associated transcription factor, residues 1-296 (Homo sapiens, UniProt O75030)	isothermal titration calorimetry	–	25 °C	–	-TΔS	4.45 kcal/mol and 1.49 kcal/mol
CC[S+]([O-])c1nc(-c2ccccc2)cc(C(F)(F)F)n1 (stereo not drawn)	Importin subunit beta-1 (KPNB1, Homo sapiens, UniProt Q14974, C585A)	thermal shift	–	30 µM, 2 h	–	Tm1	44.9 °C
COc1cc(N2CCC(N3CCN(C)CC3)CC2)ccc1Nc1ncc(Cl)c(Nc2ccccc2P(C)(C)=O)n1	GID4/ALK (Homo sapiens, UniProt Q8IVV7+Q9UM73)	ternary complex formation	HEK293T	500 nM, 6 h	reference: normalised ratio	NanoBRET ratio	0.895 and 1.11 and 0.919
O=c1nc(SCc2cc(F)cc(C(F)(F)F)c2)nc(SCc2csc3ccc(Cl)cc23)[nH]1	TOP2A	DNA relaxation	–	31.25 µM, replicate 1	–	relaxed DNA	0%
O=C(O)C1=CCNCC1	Bestrophin-2a (BEST2, Homo sapiens, UniProt Q8NFU1)	whole-cell patch clamp	HEK293 transiently expressing channel	concentration not given, membrane potential -60 mV	–	current density	-135 pA/pF and -281 pA/pF and -116 pA/pF and -149 pA/pF and -103 pA/pF
CCC(C)(NCCc1ccc(C)cc1)c1cccc(NC2=CC(=O)N(C3CCC(=O)NC3=O)C2=O)c1 (stereo not drawn)	Cereblon/Ikaros (Homo sapiens, UniProt Q13422+Q96SW2)	protein degradation, degrader, HiBiT luminescence	Jurkat	–	–	Dmax	74%
NCc1ccc(S(N)(=O)=O)cc1	Carbonic anhydrase 4 (CA4, Homo sapiens, UniProt P22748)	ITC	–	concentration not given, 25 °C	–	intrinsic binding ΔG	-12.3 kcal/mol
COc1cc(-c2cncc3c2CN(C)Cc2cc(N4CCNCC4)ccc2-3)cc(OC)c1OC	Ribosomal protein S6 kinase beta-1 (RPS6KB1, Homo sapiens, UniProt P23443)	kinase activity	–	1 µM, human enzyme, together with: ATP 10 µM	reference: DMSO control	remaining activity	102%
Cc1nc(CSc2nc(SCc3ccc(C(C)C)cc3)nc(=O)[nH]2)cs1	TOP2A	DNA cleavage	–	31.25 µM, replicate 2	–	linear DNA	0%
Nc1nc2c(ncn2[C@@H]2O[C@H](COP(=O)(O)O)[C@@H](O)[C@H]2O)c(=O)[nH]1	GUK1 (Homo sapiens, UniProt Q16774, Y81A)	enzyme activity, NADH-coupled	–	15.62 µM	–	reaction rate	-0.235 s⁻¹ and 0.792 s⁻¹ and 0.852 s⁻¹
O=c1nc(SCc2cc(F)cc(C(F)(F)F)c2)nc(SCc2ccc3nc(OCCN4CCOCC4)ccc3c2)[nH]1	TOP2A	DNA cleavage	–	31.25 µM, replicate 1	–	linear DNA	0%
COc1cc(-c2cn(C)c(=O)c3cnccc23)cc(OC)c1CN1CCN(CCCCCOc2cc(-c3scnc3C)ccc2CNC(=O)[C@@H]2C[C@@H](O)CN2C(=O)[C@@H](NC(=O)C2(F)CC2)C(C)(C)C)CC1	VHL/BRD9 (Homo sapiens, UniProt P40337+Q9H8M2)	BRD9 degradation, degrader, HiBiT	HEK293T expressing BRD9-HiBiT	15 h	–	Dmax	77%
COc1cccc2c(Nc3ccc4[nH]c(C(=O)N/N=C/c5ccc(SC)cc5)cc4c3)cc(C)nc12	Retinoic acid receptor alpha (RARA, Homo sapiens, UniProt P10276)	reporter gene, Gal4 hybrid reporter	–	3 µM	reference: vehicle	activation	0.78 fold

A few entries again:
Structure (SMILES)	target	test	system	setting	how to read	measurement	result
CCC(C)(NCCc1ccc(C)cc1)c1cccc(NC2=CC(=O)N(C3CCC(=O)NC3=O)C2=O)c1 (stereo not drawn)	Cereblon/Ikaros (Homo sapiens, UniProt Q13422+Q96SW2)	protein degradation, degrader, HiBiT luminescence	Jurkat	–	–	Dmax	74%
NCc1ccc(S(N)(=O)=O)cc1	Carbonic anhydrase 4 (CA4, Homo sapiens, UniProt P22748)	ITC	–	concentration not given, 25 °C	–	intrinsic binding ΔG	-12.3 kcal/mol
COc1cc(-c2cncc3c2CN(C)Cc2cc(N4CCNCC4)ccc2-3)cc(OC)c1OC	Ribosomal protein S6 kinase beta-1 (RPS6KB1, Homo sapiens, UniProt P23443)	kinase activity	–	1 µM, human enzyme, together with: ATP 10 µM	reference: DMSO control	remaining activity	102%
Cc1nc(CSc2nc(SCc3ccc(C(C)C)cc3)nc(=O)[nH]2)cs1	TOP2A	DNA cleavage	–	31.25 µM, replicate 2	–	linear DNA	0%
